Measurements of several laboratories.
Values joined by “and” are separate records of one study, mostly repeats; a detail may differ. Numbers after ± are the reported error.
uncharacterized protein: uncharacterized protein (Anopheles coluzzii, UniProt A0A6E8VQK1)
Nuclear receptor subfamily 1 group I member 3: Nuclear receptor subfamily 1 group I member 3 (Homo sapiens, UniProt Q14994)
Chain of UniProt Q14994 (whole entry, looked up): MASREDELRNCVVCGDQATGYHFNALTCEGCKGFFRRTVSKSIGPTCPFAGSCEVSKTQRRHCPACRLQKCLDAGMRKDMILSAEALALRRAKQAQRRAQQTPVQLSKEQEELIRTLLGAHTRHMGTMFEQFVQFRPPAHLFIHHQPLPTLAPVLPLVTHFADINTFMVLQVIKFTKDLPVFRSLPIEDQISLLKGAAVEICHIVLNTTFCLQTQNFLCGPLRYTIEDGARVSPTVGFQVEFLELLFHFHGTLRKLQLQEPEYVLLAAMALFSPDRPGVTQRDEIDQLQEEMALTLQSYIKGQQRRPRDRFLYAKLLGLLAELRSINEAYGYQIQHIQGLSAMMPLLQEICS
Chain of UniProt Q9BZL6 (whole entry, looked up): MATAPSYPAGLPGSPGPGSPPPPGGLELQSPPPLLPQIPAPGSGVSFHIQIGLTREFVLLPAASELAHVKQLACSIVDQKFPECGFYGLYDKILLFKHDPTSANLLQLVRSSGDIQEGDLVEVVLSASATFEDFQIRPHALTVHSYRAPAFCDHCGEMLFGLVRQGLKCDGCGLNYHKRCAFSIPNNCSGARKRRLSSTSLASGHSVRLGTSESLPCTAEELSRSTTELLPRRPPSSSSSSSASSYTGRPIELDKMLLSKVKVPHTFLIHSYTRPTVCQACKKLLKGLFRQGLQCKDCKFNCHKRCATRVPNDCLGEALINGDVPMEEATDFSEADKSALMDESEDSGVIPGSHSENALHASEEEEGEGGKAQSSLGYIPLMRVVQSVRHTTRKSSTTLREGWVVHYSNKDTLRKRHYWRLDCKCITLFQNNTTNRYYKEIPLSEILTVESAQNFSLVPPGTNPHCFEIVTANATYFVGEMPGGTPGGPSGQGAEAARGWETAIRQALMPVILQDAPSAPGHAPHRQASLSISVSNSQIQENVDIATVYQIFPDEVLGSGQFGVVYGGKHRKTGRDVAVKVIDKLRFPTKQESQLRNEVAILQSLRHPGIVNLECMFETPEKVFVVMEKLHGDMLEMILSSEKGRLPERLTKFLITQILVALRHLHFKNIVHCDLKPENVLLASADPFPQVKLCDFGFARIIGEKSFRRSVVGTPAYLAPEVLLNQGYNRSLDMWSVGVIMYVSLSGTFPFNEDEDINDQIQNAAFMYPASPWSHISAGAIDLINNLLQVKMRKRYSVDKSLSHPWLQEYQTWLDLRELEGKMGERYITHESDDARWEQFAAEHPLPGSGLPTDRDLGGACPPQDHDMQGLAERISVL
Chain of UniProt Q92616 (whole entry, looked up): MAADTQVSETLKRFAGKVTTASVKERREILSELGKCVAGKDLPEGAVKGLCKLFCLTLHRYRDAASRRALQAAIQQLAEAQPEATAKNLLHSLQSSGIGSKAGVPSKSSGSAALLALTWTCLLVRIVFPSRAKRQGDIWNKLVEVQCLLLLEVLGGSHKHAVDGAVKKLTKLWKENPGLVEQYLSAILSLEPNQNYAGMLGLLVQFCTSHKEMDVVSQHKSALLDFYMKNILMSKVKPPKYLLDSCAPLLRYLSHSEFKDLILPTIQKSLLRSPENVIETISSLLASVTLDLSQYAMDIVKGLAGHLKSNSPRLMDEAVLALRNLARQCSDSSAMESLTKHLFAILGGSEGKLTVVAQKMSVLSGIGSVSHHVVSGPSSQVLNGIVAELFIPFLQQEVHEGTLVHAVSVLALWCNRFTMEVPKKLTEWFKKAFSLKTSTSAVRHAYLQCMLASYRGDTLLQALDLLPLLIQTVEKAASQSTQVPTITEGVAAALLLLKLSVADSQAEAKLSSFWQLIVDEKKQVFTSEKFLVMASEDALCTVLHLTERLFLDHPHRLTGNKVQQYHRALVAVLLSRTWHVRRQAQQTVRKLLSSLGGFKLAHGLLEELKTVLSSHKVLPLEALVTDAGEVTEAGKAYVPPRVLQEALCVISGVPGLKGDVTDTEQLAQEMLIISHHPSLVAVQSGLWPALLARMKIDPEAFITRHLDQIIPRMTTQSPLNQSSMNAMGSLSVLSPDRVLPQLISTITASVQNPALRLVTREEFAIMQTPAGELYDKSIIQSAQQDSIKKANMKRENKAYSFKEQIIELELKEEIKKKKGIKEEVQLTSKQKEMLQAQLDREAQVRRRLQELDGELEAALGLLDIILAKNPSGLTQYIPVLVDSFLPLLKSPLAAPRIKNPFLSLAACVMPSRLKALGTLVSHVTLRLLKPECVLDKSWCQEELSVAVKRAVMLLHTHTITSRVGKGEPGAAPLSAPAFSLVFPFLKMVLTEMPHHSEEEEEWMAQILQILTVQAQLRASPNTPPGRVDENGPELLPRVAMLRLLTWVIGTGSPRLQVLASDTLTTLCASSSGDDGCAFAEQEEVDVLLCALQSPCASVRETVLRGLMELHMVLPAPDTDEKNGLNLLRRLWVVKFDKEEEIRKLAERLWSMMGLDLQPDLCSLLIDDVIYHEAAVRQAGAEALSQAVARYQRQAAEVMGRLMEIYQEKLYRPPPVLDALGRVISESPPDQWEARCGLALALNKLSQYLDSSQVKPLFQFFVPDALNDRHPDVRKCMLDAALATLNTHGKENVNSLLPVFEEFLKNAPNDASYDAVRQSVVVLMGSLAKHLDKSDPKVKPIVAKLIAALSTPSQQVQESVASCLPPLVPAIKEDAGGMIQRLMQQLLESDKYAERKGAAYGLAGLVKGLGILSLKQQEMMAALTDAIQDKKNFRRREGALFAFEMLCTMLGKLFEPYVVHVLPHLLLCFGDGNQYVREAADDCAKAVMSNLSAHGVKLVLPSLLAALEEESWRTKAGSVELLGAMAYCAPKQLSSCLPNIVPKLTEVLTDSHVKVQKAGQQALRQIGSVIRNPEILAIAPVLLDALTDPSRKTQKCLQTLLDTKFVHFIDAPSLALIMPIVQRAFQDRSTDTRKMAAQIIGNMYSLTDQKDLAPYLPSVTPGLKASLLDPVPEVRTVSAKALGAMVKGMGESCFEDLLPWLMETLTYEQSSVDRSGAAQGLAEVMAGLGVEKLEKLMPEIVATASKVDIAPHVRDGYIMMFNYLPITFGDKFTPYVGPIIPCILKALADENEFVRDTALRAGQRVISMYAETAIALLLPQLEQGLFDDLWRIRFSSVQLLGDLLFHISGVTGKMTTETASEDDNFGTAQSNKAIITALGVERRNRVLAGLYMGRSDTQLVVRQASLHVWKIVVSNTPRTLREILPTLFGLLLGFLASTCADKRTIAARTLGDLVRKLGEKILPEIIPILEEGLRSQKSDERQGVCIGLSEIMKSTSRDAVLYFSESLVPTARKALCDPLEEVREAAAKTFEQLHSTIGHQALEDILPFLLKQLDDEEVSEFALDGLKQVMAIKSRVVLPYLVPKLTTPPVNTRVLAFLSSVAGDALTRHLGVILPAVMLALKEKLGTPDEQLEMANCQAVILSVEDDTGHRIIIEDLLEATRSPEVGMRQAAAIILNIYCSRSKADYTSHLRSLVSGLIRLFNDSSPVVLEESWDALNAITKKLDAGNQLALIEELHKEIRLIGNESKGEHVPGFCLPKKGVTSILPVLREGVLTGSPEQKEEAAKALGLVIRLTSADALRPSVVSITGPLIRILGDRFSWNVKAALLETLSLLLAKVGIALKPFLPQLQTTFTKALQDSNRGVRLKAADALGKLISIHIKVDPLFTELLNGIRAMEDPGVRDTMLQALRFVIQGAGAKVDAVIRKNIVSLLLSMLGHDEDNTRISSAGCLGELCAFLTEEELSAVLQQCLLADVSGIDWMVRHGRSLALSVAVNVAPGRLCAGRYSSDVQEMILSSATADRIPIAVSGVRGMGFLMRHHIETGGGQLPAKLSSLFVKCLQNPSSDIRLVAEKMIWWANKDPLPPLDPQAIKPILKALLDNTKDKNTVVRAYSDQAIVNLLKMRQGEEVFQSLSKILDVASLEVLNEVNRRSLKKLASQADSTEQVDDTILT
Chain of UniProt Q9Y570 (whole entry, looked up): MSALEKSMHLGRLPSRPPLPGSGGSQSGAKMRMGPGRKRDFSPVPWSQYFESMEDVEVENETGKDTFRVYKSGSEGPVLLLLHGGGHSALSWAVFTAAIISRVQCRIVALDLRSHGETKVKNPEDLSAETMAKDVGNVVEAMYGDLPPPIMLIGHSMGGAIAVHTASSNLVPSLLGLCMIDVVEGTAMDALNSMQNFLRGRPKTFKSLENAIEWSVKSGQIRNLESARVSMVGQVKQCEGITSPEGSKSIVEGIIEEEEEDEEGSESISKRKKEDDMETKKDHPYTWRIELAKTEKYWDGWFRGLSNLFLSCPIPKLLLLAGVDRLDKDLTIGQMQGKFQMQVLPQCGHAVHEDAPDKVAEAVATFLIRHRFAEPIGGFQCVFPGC
Chain of UniProt Q9UPE1 (whole entry, looked up): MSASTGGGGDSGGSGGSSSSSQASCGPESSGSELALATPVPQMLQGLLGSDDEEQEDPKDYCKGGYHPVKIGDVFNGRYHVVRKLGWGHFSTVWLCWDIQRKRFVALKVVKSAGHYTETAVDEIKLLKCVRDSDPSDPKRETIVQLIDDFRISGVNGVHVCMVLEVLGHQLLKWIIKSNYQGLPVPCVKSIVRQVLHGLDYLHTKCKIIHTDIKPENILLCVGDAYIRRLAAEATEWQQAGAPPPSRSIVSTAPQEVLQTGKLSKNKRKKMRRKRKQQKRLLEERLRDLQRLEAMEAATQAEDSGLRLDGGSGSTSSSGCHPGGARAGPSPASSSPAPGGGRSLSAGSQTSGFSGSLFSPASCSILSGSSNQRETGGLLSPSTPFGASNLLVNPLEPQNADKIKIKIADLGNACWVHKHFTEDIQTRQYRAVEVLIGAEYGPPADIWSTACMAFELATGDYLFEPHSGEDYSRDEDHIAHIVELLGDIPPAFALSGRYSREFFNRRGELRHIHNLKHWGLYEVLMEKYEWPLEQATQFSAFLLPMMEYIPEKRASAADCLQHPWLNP

SMILES	target	assay	test system	conditions	how to read	measurement	result
CC(CCn1ccc(-c2ccc(-c3cn(CC4CC4)nn3)cc2)cc1=O)(C(=O)NO)S(C)(=O)=O (centres unmarked)	UDP-3-O-acyl-N-acetylglucosamine deacetylase (Pseudomonas aeruginosa, UniProt P47205)	fluorescence		37 °C		residence time	67 min and 66.9 min
COC(CNC(=O)c1ccccc1OCC(=O)O)[CH2][Hg][OH] (centres unmarked)	SLC25A13 (Homo sapiens, UniProt Q9UJS0)	thermal stability, CPM thermal shift		0.1 mM, DDM-solubilised protein		ΔTm	< 0 °C
Nc1ncc(-c2nc(N3CCOCC3)nc(N3CCOCC3)n2)c(C(F)F)n1	NMDA receptor	radioligand binding, antagonist ligand		10 µM	relative to: control	remaining binding	99.6%
CC1(C)[C@H](C(=O)O[C@H](C#N)c2cccc(Oc3ccccc3)c2)[C@@H]1C=C(Br)Br	uncharacterized protein	enzyme activity, inhibitor	Sf9 cell homogenate	0.0004546 µM, 0.1667 h, together with: α-naphthyl acetate substrate	relative to: no inhibitor	remaining activity	98.5%
COc1ccc(N2C(=O)N(c3c(C)cccc3Cl)Cc3cnc(Nc4ccc(C5CCN(C)CC5)cc4OC)nc32)nc1	PRKD2 (Homo sapiens, UniProt Q9BZL6)	kinase activity		0.5 µM		inhibition	30%
CC[C@H](C)[C@H](NC(=O)CNC(=O)[C@@H](N)CCCCN)C(=O)N[C@@H](CC(C)C)C(=O)N[C@@H](CCCCN)C(=O)N[C@@H](CC(N)=O)C(=O)N[C@@H](CCCNC(=N)N)C(=O)N[C@@H](C)C(=O)N[C@@H](CCCNC(=N)N)C(=O)N[C@@H](CCCNC(=N)N)C(=O)N[C@@H](CCC(=O)O)C(=O)N[C@@H](CCCNC(=N)N)C(=O)N1CCC[C@H]1C(=O)NCC(=O)N[C@@H](CCCCN)C(=O)N[C@@H](CCCNC(=N)N)C(=O)N[C@@H](CCCCN)C(=O)N[C@@H](CC(N)=O)C(=O)N[C@H](C(=O)N[C@@H](Cc1c[nH]cn1)C(=O)N[C@@H](Cc1c[nH]c2ccccc12)C(=O)N1CCC[C@H]1C(=O)N[C@@H](CCC(=O)O)C(=O)N[C@@H](CCC(=O)O)C(=O)NCC(=O)N[C@@H](CCCCN)C(=O)N[C@@H](CC(C)C)C(=O)N[C@@H](CCCNC(=N)N)C(=O)N[C@@H](CCC(=O)O)C(=O)N[C@@H](Cc1ccc(O)cc1)C(=O)N[C@@H](Cc1ccccc1)C(=O)N[C@@H](Cc1ccc(O)cc1)C(=O)N[C@@H](Cc1ccccc1)C(=O)N[C@@H](CCC(=O)O)C(=O)N[C@@H](CC(C)C)C(=O)N[C@@H](CC(=O)O)C(=O)N[C@@H](CCC(=O)O)C(=O)N[C@@H](C)C(=O)N[C@@H](CCC(=O)O)C(=O)N[C@@H](CCCNC(=N)N)C(=O)N[C@H](C(=O)N[C@@H](CC(N)=O)C(=O)N[C@H](C(=O)O)C(C)C)C(C)C)C(C)C	PPP1CA (Homo sapiens, UniProt P62136)	ITC		concentration not given, 25 °C, PP1α 7-330		ΔG of binding	-11.5 ± 0.1 kcal/mol
O=C(Nc1cnccc1Cl)N1CCN(Cc2ccc3c(c2)OC(F)(F)O3)CC1	PTGER1 (Homo sapiens, UniProt P34995)	binding, measured: EP1		10 µM, human, together with: [3H]prostaglandin E2		inhibition	13%
C/C=C(/C)C(=O)O[C@H]1C(C)=C2[C@H]([C@@H]1OC(=O)CCCCCCC)[C@@](C)(OC(C)=O)C[C@H](OC(=O)CCC)[C@@]1(O)[C@H]2OC(=O)[C@@]1(C)O	Protein transport protein Sec61 subunit alpha isoform 1 (Homo sapiens, UniProt P61619)	Sec61-dependent translocation, inhibitor, measured: CD4 signal peptide-FLuc reporter	HEK293	concentration not given	relative to: mock	FLuc/RLuc ratio	0.909
Nc1nc2c(ncn2[C@@H]2O[C@@H]3COP(=O)(O)O[C@H]4[C@@H](O)[C@H](n5cnc6c(=O)[nH]c(N)nc65)O[C@@H]4COP(=O)(O)O[C@H]3[C@H]2O)c(=O)[nH]1	Cell cycle histidine kinase CckA, R374A; cytoplasmic region (Caulobacter vibrioides, UniProt Q9X688, R374A)	isothermal titration calorimetry	Caulobacter crescentus	concentration not given, 12 °C, together with: AMPPNP 5 mM		binding enthalpy (ΔH)	0.7 kcal/mol
O=C(c1ccc(Cl)cc1)N1CCN2C(=O)N(OC(=O)N3CCOc4ccccc43)C(=O)C2C1 (centres unmarked)	Protein phosphatase methylesterase 1 (Homo sapiens, UniProt Q9Y570)	MS-based ABPP	SW-620 conditioned medium	10 µM, 1 h, 37 °C	relative to: compound over DMSO, lower = more inhibition	mean protein ratio	1
CC[n+]1c(-c2ccccc2)c2cc(N)ccc2c2ccc(N)cc21	DCLRE1A (Homo sapiens, UniProt Q6PJP8)	exonuclease activity, inhibitor, fluorescence HTS		10 µM, 80 min, together with: 8 nM 5P-FQ substrate		remaining activity	36.6%
O=C(Nc1cccnn1)N1CCC(=Cc2cccc(Oc3ccc(C(F)(F)F)cn3)c2)CC1	CCKAR (Homo sapiens, UniProt P32238)	binding		10 µM, together with: [3H]L-364,718		inhibition	-4%
Cn1c(N)nc2c3cccnc3ccc21	Ahr (Rattus norvegicus, UniProt P41738)	reporter gene, activator			relative to: baseline cytotoxicity over effect concentration	specificity ratio	427
CNC(=O)Oc1cccc2c1OC(C)(C)O2	uncharacterized protein	enzyme activity, inhibitor	Sf9 cell homogenate	93.02 µM, 0.1667 h, together with: α-naphthyl acetate substrate	relative to: no inhibitor	remaining activity	0.979%
CC(C)C[C@H](NC(=O)[C@@H]1CCCN1C(=O)[C@H](CCCNC(=N)N)NC(=O)[C@H](CC(C)C)NC(=O)[C@H](CCCNC(=N)N)NC(=O)[C@H](CC(=O)O)NC(=O)[C@H](Cc1ccc(O)cc1)NC(=O)[C@H](CC(=O)O)NC(=O)[C@H](CCC(=O)O)NC(=O)[C@H](CCC(N)=O)NC(=O)CN)C(=O)O	Epithelial sodium channel subunit alpha (Homo sapiens, UniProt P37088)	binding, bio-layer interferometry				kon	277 M⁻¹ s⁻¹
COc1cc(N)c(Cl)cc1C(=O)NC1CN2CCC1CC2 (centres unmarked)	LPAR4 (Homo sapiens, UniProt Q99677)	β-arrestin recruitment, TANGO luminescence, measured: GPR23		concentration not given	relative to: basal luminescence	log2 fold change	-0.029
OB(O)CSc1nc2ccccc2n1Cc1ccc(C(F)(F)F)cc1C(F)(F)F	Regulatory protein BlaR1, sensor domain (blaR1, Staphylococcus aureus, UniProt P18357)			pH 7.4		kinact/KI	900 ± 100000 M⁻¹ s⁻¹
CC(C)[C@@H]1NC(=O)[C@H](C)OC(=O)[C@@H](C(C)C)NC(=O)[C@@H](C(C)C)OC(=O)[C@H](C(C)C)NC(=O)[C@H](C)OC(=O)[C@@H](C(C)C)NC(=O)[C@@H](C(C)C)OC(=O)[C@H](C(C)C)NC(=O)[C@H](C)OC(=O)[C@@H](C(C)C)NC(=O)[C@@H](C(C)C)OC1=O	Metalloendopeptidase OMA1, mitochondrial (OMA1, Homo sapiens, UniProt Q96E52)	protease activity		concentration not given, 15 min	relative to: untreated cells	Luke-S1 reporter signal	~40%
Nc1ncnc2c1ncn2[C@@H]1O[C@H](COP(=O)(O)O)[C@@H](O)[C@H]1O	matB (Rhodopseudomonas palustris, UniProt Q6ND88, C106A/K488A/Q457C/R286C)	binding, intrinsic fluorescence		250 µM, 1 µM matB, 10 mM MgCl2		fluorescence ratio F+/F-	1.15
C/C(=C\C(=O)OCCCCCCCC(=O)Nc1c2sscc-2[nH]c1=O)[C@@H](O)[C@@H]1OC[C@H](C/C=C/[C@@H](C)[C@H](C)O)[C@@H](O)[C@H]1O	Isoleucine--tRNA ligase (ileS, Staphylococcus aureus, UniProt Q5HGN8)	isothermal titration calorimetry		concentration not given, pH 7.4, 25 °C, nonreducing		enthalpy of binding	-12.4 ± 0.4 kcal/mol
COc1cc(Nc2ncc(F)c(Nc3ccc4c(n3)NC(=O)C(C)(C)O4)n2)cc(OC)c1OC	SRPK3 (Homo sapiens, UniProt Q9UPE1)	KINOMEscan		10 µM		inhibition	12%
O=C1c2ccccc2C(=O)C1c1ccccc1	Nuclear receptor subfamily 1 group I member 3			concentration not given		activity	inactive
C[C@H]1CN(c2n[nH]c3nc(N[C@H]4CC[C@H](NS(=O)(=O)CCC(F)(F)F)CC4)ncc23)CCO1	Stalled ribosome sensor GCN1 (Homo sapiens, UniProt Q92616)	Kinobeads competition, measured: GCN1L1		20 µM, unit not given	relative to: vehicle	remaining binding	1.14
CCCCCCCCCCCCCC[N+](C)(C)C	Sodium channel protein type 4 alpha, BTX-activated (Oryctolagus cuniculus, UniProt G1SLL9)					off rate	41 s⁻¹
O=C1c2ccccc2C(=O)C1C(=O)C(c1ccccc1)c1ccccc1	Nuclear receptor subfamily 1 group I member 3		cells	concentration not given		activity	inactive
C[C@@H](O)[C@H](NC(=O)c1ccc(-c2ccc(Br)cc2)cc1)C(=O)NO	UDP-3-O-acyl-N-acetylglucosamine deacetylase (Pseudomonas aeruginosa, UniProt P47205, C40S)	isothermal titration calorimetry		concentration not given, 298 K, untagged protein, averaged		entropy change (ΔS)	0.0165 kcal/mol/K

Repeated from above:
SMILES	target	assay	test system	conditions	how to read	measurement	result
COC(CNC(=O)c1ccccc1OCC(=O)O)[CH2][Hg][OH] (centres unmarked)	SLC25A13 (Homo sapiens, UniProt Q9UJS0)	thermal stability, CPM thermal shift		0.1 mM, DDM-solubilised protein		ΔTm	< 0 °C
Nc1ncc(-c2nc(N3CCOCC3)nc(N3CCOCC3)n2)c(C(F)F)n1	NMDA receptor	radioligand binding, antagonist ligand		10 µM	relative to: control	remaining binding	99.6%
CC1(C)[C@H](C(=O)O[C@H](C#N)c2cccc(Oc3ccccc3)c2)[C@@H]1C=C(Br)Br	uncharacterized protein	enzyme activity, inhibitor	Sf9 cell homogenate	0.0004546 µM, 0.1667 h, together with: α-naphthyl acetate substrate	relative to: no inhibitor	remaining activity	98.5%
